{"data": "Results from different studies", "GPR84": "G-protein coupled receptor 84 (GPR84, Homo sapiens, UniProt Q9NQS5)", "VCP": "Transitional endoplasmic reticulum ATPase (VCP, Homo sapiens, UniProt P55072)", "ESR2": "Estrogen receptor beta (ESR2, Homo sapiens, UniProt Q92731)", "BRAP ZnF-UBD domain": "BRCA1-associated protein, ZnF-UBD domain (BRAP, Homo sapiens, UniProt Q7Z569)", "note": "Lines come from different studies, so protocols differ. ± marks the error that the study gave.", "chain of UniProt P55072 (whole entry, looked up)": "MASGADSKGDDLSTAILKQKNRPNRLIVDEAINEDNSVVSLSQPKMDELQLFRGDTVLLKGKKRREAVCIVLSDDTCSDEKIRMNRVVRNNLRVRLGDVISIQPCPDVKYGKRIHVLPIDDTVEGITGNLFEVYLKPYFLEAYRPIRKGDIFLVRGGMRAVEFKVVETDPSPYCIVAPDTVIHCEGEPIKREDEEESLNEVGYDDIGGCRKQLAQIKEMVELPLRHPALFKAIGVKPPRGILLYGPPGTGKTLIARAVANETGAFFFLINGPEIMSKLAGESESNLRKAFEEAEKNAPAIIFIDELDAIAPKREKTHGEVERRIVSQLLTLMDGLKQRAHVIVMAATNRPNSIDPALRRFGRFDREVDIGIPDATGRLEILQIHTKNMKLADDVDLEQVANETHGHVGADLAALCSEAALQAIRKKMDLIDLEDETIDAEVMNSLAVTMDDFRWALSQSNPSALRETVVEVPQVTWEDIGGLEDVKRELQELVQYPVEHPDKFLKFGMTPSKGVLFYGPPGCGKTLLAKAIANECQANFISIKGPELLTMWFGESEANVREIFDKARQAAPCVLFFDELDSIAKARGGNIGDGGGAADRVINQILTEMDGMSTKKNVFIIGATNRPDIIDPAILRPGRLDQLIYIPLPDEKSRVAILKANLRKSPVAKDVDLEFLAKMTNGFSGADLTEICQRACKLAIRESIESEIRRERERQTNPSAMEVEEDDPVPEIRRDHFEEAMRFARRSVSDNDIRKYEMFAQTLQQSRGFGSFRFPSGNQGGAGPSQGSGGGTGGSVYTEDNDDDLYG", "chain of UniProt Q7Z569 (whole entry, looked up)": "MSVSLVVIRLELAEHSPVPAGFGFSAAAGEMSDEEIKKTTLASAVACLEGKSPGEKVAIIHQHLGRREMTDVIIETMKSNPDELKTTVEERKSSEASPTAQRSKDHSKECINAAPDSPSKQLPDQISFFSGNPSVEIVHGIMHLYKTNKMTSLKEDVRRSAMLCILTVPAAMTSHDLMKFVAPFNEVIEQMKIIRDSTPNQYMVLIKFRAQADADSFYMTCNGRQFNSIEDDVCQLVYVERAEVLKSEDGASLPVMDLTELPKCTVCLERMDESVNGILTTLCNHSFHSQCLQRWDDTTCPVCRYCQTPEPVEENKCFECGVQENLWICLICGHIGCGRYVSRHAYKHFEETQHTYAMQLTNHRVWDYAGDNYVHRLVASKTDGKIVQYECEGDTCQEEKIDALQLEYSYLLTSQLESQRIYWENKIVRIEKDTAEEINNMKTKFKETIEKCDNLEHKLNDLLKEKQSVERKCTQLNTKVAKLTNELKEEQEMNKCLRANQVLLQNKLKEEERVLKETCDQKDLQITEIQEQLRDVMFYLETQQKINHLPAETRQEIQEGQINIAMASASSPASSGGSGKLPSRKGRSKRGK", "chain of UniProt Q92731 (whole entry, looked up)": "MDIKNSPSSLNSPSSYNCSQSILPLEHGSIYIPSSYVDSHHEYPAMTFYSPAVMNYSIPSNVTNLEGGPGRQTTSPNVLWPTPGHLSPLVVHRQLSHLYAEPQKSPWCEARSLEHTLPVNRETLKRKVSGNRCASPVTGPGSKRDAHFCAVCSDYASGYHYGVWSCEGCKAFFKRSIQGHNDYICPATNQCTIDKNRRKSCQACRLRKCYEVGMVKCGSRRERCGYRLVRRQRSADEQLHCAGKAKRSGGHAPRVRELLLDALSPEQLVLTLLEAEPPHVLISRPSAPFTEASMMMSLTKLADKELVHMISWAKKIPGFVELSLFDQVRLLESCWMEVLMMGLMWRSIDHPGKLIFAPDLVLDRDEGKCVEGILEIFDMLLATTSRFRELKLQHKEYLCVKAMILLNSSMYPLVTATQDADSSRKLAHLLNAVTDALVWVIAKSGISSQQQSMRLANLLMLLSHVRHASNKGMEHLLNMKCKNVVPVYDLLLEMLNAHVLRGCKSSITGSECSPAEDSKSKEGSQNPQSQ", "chain of UniProt Q9NQS5 (whole entry, looked up)": "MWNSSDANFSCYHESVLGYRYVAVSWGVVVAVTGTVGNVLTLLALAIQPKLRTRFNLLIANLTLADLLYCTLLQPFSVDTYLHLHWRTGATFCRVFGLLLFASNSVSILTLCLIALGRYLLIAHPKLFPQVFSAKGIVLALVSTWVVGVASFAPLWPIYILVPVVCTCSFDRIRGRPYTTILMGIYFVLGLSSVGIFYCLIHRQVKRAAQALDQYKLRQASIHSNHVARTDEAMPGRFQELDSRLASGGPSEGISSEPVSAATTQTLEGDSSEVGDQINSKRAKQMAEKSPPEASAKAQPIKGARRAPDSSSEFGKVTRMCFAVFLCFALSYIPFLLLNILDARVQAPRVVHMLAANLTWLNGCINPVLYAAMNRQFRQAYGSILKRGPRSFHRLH", "chain of UniProt Q92633 (whole entry, unmodified, looked up)": "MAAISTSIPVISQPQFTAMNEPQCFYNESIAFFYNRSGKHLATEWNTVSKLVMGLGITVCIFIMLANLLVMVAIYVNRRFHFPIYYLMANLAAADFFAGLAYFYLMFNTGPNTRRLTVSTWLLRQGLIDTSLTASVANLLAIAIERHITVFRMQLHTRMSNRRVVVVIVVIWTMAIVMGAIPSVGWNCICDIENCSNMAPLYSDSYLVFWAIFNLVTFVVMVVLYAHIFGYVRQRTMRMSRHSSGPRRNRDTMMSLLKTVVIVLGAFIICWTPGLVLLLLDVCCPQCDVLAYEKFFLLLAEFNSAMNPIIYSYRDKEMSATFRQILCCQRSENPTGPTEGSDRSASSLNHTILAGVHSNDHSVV"}
{"SMILES": "O=c1cc(NCCc2cccc(Cl)c2)[nH]c(=O)[nH]1", "target": "GPR84", "assay": "cAMP", "measurement": "EC50", "value": "0.126 µM"}
{"SMILES": "Cc1cccc(Nc2nc(NCc3ccccc3)c3ccccc3n2)c1", "target": "VCP", "assay": "enzyme activity, inhibitor", "measurement": "IC50", "value": "1.7 ± 0.5 µM"}
{"SMILES": "COc1c(O)cc(O)c2c(=O)cc(-c3ccccc3)oc12", "target": "ESR2", "assay": "array formation, agonist", "system": "GFP-ERβ PRL-HeLa", "conditions": "1 h", "measurement": "EC50", "value": "2.43 µM"}
{"SMILES": "Nc1nc2ccccc2n1-c1nccc(NCc2ccccc2)n1", "target": "VCP", "assay": "enzyme activity, inhibitor", "measurement": "IC50", "value": "2.8 ± 0.6 µM"}
{"SMILES": "O=C(O)CCC(=O)Nc1ccccc1", "target": "BRAP ZnF-UBD domain", "measurement": "Kd", "value": "> 1000 µM"}
{"SMILES": "CC(C)=CCc1cc2c(cc1O)O[C@H](c1ccc(O)cc1)CC2=O", "target": "ESR2", "assay": "array formation, agonist", "system": "GFP-ERβ PRL-HeLa", "conditions": "1 h", "measurement": "EC50", "value": "0.146 µM"}
{"SMILES": "Cc1ccc(-c2nc(NC(C)c3ccccc3)c3ccccc3n2)cc1 (stereo not drawn)", "target": "VCP", "assay": "enzyme activity, inhibitor", "measurement": "IC50", "value": "7 ± 4 µM"}
{"SMILES": "O=C1C[C@@H](c2ccc(O)c(O)c2)Oc2cc(O)cc(O)c21", "target": "ESR2", "assay": "array formation, agonist", "system": "GFP-ERβ PRL-HeLa", "conditions": "1 h", "measurement": "EC50", "value": "1.22 µM"}
{"SMILES": "Oc1cc(NCCCCc2ccccc2)nc(O)n1", "target": "GPR84", "assay": "cAMP", "measurement": "EC50", "value": "0.0245 µM"}
{"SMILES": "Cc1c(O)c(C)c2c(c1O)C(=O)C[C@@H](c1ccc(O)cc1)O2", "target": "ESR2", "assay": "array formation, agonist", "system": "GFP-ERβ PRL-HeLa", "conditions": "1 h", "measurement": "EC50", "value": "6.9 µM"}
{"SMILES": "CCCCCCCCCNc1cc(=O)[nH]c(=O)[nH]1", "target": "GPR84", "assay": "agonist", "measurement": "EC50", "value": "0.0339 µM"}
{"SMILES": "COc1cc2oc(=O)cc(C)c2cc1CCC(=O)O", "target": "BRAP ZnF-UBD domain", "measurement": "Kd", "value": "71.6 µM"}
{"SMILES": "Oc1ccc2c(c1)OC[C@H]1c3cc4c(cc3O[C@@H]21)OCO4", "target": "ESR2", "assay": "array formation, agonist", "system": "GFP-ERβ PRL-HeLa", "conditions": "1 h", "measurement": "EC50", "value": "1.58 µM"}
{"SMILES": "CN1CCN(c2nc(NCc3ccccc3)c3ccccc3n2)CC1", "target": "VCP", "assay": "enzyme activity, inhibitor", "measurement": "IC50", "value": "53 ± 18 µM"}
{"SMILES": "O=c1cc(N2CCN(c3ccc(Cl)cc3)CC2)[nH]c(=O)[nH]1", "target": "GPR84", "assay": "cAMP level, agonist", "measurement": "EC50", "value": "0.153 ± 0.01 µM"}
{"SMILES": "O=C(O)CCC1=Nc2cccc3cccc(c23)N1", "target": "BRAP ZnF-UBD domain", "measurement": "Kd", "value": "> 1000 µM"}
{"SMILES": "O=c1cc(-c2ccc(O)c(O)c2)oc2cc(O)cc(O)c12", "target": "ESR2", "assay": "array formation, agonist", "system": "GFP-ERβ PRL-HeLa", "conditions": "1 h", "measurement": "EC50", "value": "2.1 µM"}
{"SMILES": "CCc1oc2c([C@H](CO)N(CC)CC)cccc2c1C", "target": "LPAR1 (Homo sapiens, UniProt Q92633, Q125A)", "assay": "Gi activation, agonist, NanoBiT G-protein dissociation", "system": "HEK293T", "conditions": "Q125A mutant", "measurement": "EC50", "value": "0.00661 µM"}
{"SMILES": "O=C(O)CCc1ccc2c(c1)OCO2", "target": "BRAP ZnF-UBD domain", "measurement": "Kd", "value": "> 1000 µM"}
{"SMILES": "Oc1ccc([C@H]2COc3cc(O)ccc3C2)cc1", "target": "ESR2", "assay": "array formation, agonist", "system": "GFP-ERβ PRL-HeLa", "conditions": "1 h", "measurement": "EC50", "value": "0.0141 µM"}
{"SMILES": "Clc1ccc(CNc2nc(-c3ccccc3)nc3ccccc23)cc1", "target": "VCP", "assay": "enzyme activity, inhibitor", "measurement": "IC50", "value": "> 30 µM"}
{"SMILES": "COc1cc(O)c2c(=O)cc(-c3ccc(O)cc3)oc2c1", "target": "ESR2", "assay": "array formation, agonist", "system": "GFP-ERβ PRL-HeLa", "conditions": "1 h", "measurement": "EC50", "value": "1.21 µM"}
{"SMILES": "O=c1cc(NCCCCCCCO)[nH]c(=O)[nH]1", "target": "GPR84", "assay": "cAMP", "measurement": "EC50", "value": "2 µM"}
{"SMILES": "O=C(O)CCN1C(=O)c2ccccc2S1(=O)=O", "target": "BRAP ZnF-UBD domain", "measurement": "Kd", "value": "> 1000 µM"}
{"SMILES": "Fc1ccccc1Nc1nc(NCc2ccccc2)c2ccccc2n1", "target": "VCP", "assay": "enzyme activity, inhibitor", "measurement": "IC50", "value": "0.85 ± 0.17 µM"}
{"SMILES": "O=C(O)Cn1cnc2ccccc2c1=O", "target": "BRAP ZnF-UBD domain", "measurement": "Kd", "value": "> 1000 µM"}
{"SMILES": "O=c1cc(NCCOc2ccccc2)[nH]c(=O)[nH]1", "target": "GPR84", "assay": "cAMP level, agonist", "system": "human cells", "measurement": "EC50", "value": "0.101 ± 0.053 µM"}
{"SMILES": "Clc1ccc(Nc2nc(NCc3ccccc3)c3ccccc3n2)cc1", "target": "VCP", "assay": "enzyme activity, inhibitor", "measurement": "IC50", "value": "5.4 ± 2 µM"}
{"SMILES": "O=c1cc(NCCCOc2ccccc2)[nH]c(=O)[nH]1", "target": "GPR84", "assay": "cAMP", "measurement": "EC50", "value": "0.0741 µM"}
{"SMILES": "O=C(O)CCOc1ccccc1", "target": "BRAP ZnF-UBD domain", "measurement": "Kd", "value": "> 1000 µM"}
{"SMILES": "c1ccc(CNc2nc(N3CCc4ccccc4C3)nc3ccccc23)cc1", "target": "VCP", "assay": "enzyme activity, inhibitor", "measurement": "IC50", "value": "15 ± 3 µM"}
{"SMILES": "O=c1cc(NCCc2cccc(F)c2)[nH]c(=O)[nH]1", "target": "GPR84", "assay": "agonist", "measurement": "EC50", "value": "3.09 µM"}
{"SMILES": "O=C(O)CCc1nc2ncccn2n1", "target": "BRAP ZnF-UBD domain", "measurement": "Kd", "value": "> 1000 µM"}
{"note": "For quick reference, copied from above:"}
{"SMILES": "O=c1cc(NCCOc2ccccc2)[nH]c(=O)[nH]1", "target": "GPR84", "assay": "cAMP level, agonist", "system": "human cells", "measurement": "EC50", "value": "0.101 ± 0.053 µM"}
{"SMILES": "O=C(O)CCC1=Nc2cccc3cccc(c23)N1", "target": "BRAP ZnF-UBD domain", "measurement": "Kd", "value": "> 1000 µM"}
{"SMILES": "O=c1cc(NCCc2cccc(F)c2)[nH]c(=O)[nH]1", "target": "GPR84", "assay": "agonist", "measurement": "EC50", "value": "3.09 µM"}
{"SMILES": "CN1CCN(c2nc(NCc3ccccc3)c3ccccc3n2)CC1", "target": "VCP", "assay": "enzyme activity, inhibitor", "measurement": "IC50", "value": "53 ± 18 µM"}
{"SMILES": "COc1c(O)cc(O)c2c(=O)cc(-c3ccccc3)oc12", "target": "ESR2", "assay": "array formation, agonist", "system": "GFP-ERβ PRL-HeLa", "conditions": "1 h", "measurement": "EC50", "value": "2.43 µM"}
